Experimental data from different studies.
Each line is one published result; not all experiments were run side by side. ± marks the error that the study gave.

NS(=O)(=O)c1ccc(-n2cc(CNc3ccc(F)cc3)c(-c3ccc(OCc4ccccc4)cc3)n2)cc1 — inhibition (acetic acid-induced writhing; mouse; oral, 20 mg/kg, 30 min pretreatment, writhes counted over 20 min, together with: 0.6% acetic acid ip): 65.1 ± 1.2%
CCCC1OC2CC3C4CCC5=CC(=O)C=CC5(C)C4C(O)CC3(C)C2(C(=O)COC(=O)CN(C)C)O1 (centres unmarked) — inhibition of ear edema (mouse, xylene-induced ear edema; intraperitoneal, equivalent to 200 µg/kg budesonide, 1 h before xylene): 46.7%
C=CC(=O)N1C[C@H](C)N(c2nc(OC[C@@]34CCCN3C[C@H](F)C4)nc3c(F)c(-c4ccc(F)c5sc(N)c(C#N)c45)c(C(F)(F)F)cc23)C[C@H]1C — inhibition (measured: phospho-ERK; mouse MIA PaCa-2 Matrigel plug; 30 mg/kg single dose, 48 h): 57%
CC(C)c1cnc(-c2cc(Cl)ccc2F)cc1Nc1ccncc1C(=O)NC(CO)CO — inhibition (measured: pSMAD2; MC-38 tumour-bearing mouse, tumour; 30 mg/kg, 0 to 8 h average; reference: vehicle): 56%
COC(=O)C1OC(Oc2c(-c3ccccc3)oc3cc(O)c(O)c(O)c3c2=O)C(O)C(O)C1O (centres unmarked) — inhibition (paw oedema; mouse carrageenan paw oedema; 1 mg/kg, 0 h): 9.2%
C[C@H]1CN(C(=O)c2cn(-c3ccnc(N)n3)c3cc(C#CC4(O)CCCCC4)ccc23)CCN1 — inhibition of lung metastasis (A549, mouse, lung metastasis model; dose not given): > 80%
CC(=O)[C@]12NC(C)(C)C[C@@]1(C)C(=O)C1=C2c2c(c3c4n2C(C)(C)CC2=C4[C@@]4(CC(C)(C)N[C@@](C)(C4)C2=O)CC3(C)C)C(=O)C(C)(C)N1 (racemic) — inhibition (acetic acid-induced writhing; mouse; intraperitoneal, 0.04 mg/kg, 0.5 h, writhes counted over 30 min): 37.2 ± 0.8%
COc1c2c(cc3oc(CO)cc(=O)c13)O[C@H](C(C)(C)O)C2 — inhibition (ear edema weight; mouse, xylene ear edema; oral, 4 mg/kg; reference: vehicle): 70%

Repeated from above:
C=CC(=O)N1C[C@H](C)N(c2nc(OC[C@@]34CCCN3C[C@H](F)C4)nc3c(F)c(-c4ccc(F)c5sc(N)c(C#N)c45)c(C(F)(F)F)cc23)C[C@H]1C — inhibition (measured: phospho-ERK; mouse MIA PaCa-2 Matrigel plug; 30 mg/kg single dose, 48 h): 57%
